# Assay results collected from several papers.
# Compare with care: the assays were run in different laboratories.
# Read-out: metabolic stability
# Host: human
Compound,system,setting,endpoint,value
O=C(O)Cc1ccccc1Nc1c(Cl)cccc1Cl,hepatocytes,1 µM,scaled CLint,1.4 mL/min/kg
COc1cc(C)c(C(N)=O)cn1,liver microsomes,"1 µM, pH 7.4",microsomal CLint,< 3 µL/min/mg
O=C(N1CCCCC1)C12CC(c3ccccc3)(C1)C2(F)F,liver microsomes,"2 µM, pH 7.4",microsomal CLint,19 µL/min/mg
CCC(CC)CNC(=N)NC(=N)NCCCCCCNC(=N)NC(=N)NCC(CC)CC,liver microsomes,2 µM,microsomal CLint,2.07 µL/min/mg
CN(Cc1cc(C2CC2)on1)C(=O)c1cccc(-c2ccc(F)cc2)c1,liver microsomes,"2 µM, pH 7.5",microsomal CLint,16.6 µL/min/mg
CC(C)C[C@H](NC(=O)[C@@H]1CCCN1C(=O)[C@@H]1CCCN1C(=O)[C@H](CC(N)=O)NC(=O)[C@@H](N)Cc1ccc(Cl)c(Cl)c1)C(=O)N[C@@H](Cc1c[nH]cn1)C(=O)N[C@@H](CO)C(=O)N[C@H](C(=O)N[C@@H](C)C(=O)O)[C@@H](C)OP(=O)(O)O,liver microsomes,"1 µM, pH 7.4",microsomal CLint,98 µL/min/mg
Cn1ncc2cc(CN3CCC(F)(F)C(COc4ccc(C#N)cc4)C3)ccc21 (centres unmarked),liver microsomes,,scaled CLint,111 mL/min/kg
O=C(c1ccc(-c2ccccc2)cc1)N1CCCCC1,liver microsomes,"2 µM, pH 7.4",microsomal CLint,12 µL/min/mg
O=c1[nH]cccc1[C@H](CO)Nc1nc(N2C[C@@H]3C[C@H]2CO3)c2cc(-c3ccccc3)sc2n1,hepatocytes,,hepatocyte CLint,13.5 µL/min/10⁶ cells
C=CC(=O)N1CCCC(n2c(=O)c3ncccc3n(Cc3ccc(Oc4ccccc4)cc3)c2=O)C1 (centres unmarked),hepatocytes,1 µM,hepatocyte CLint,8.2 µL/min/10⁶ cells
Nc1nc(SCc2ccc(Cl)cc2)nn1S(=O)(=O)c1ccc2c(c1)CCO2,liver microsomes,"1 µM, pH 7.4",microsomal CLint,219 µL/min/mg
Cc1cc(C(=O)Nc2nc3cccc(C)c3n2[C@H]2CCCCN(C(=O)/C=C/CN(C)C)C2)ccn1,liver microsomes,,microsomal CLint,42.4 µL/min/mg
Fc1ccc(OCC2CN(Cc3cn4ccccc4n3)CCC2(F)F)cc1F (centres unmarked),liver microsomes,,scaled CLint,456 mL/min/kg
CNc1cc(C)c(C(N)=O)cn1,liver microsomes,"1 µM, pH 7.4",microsomal CLint,< 4.8 µL/min/mg
Fc1ccc(OCC2CN(Cc3cn4ccccc4n3)CCC2(F)F)cc1 (centres unmarked),liver microsomes,,scaled CLint,349 mL/min/kg
CNc1cc(N)c(C(N)=O)cn1,hepatocytes,"1 µM, pH 7.4",hepatocyte CLint,4.3 µL/min/10⁶ cells
CCC1(CC)CC(=O)N(C2CCOc3ccc(C(=O)NC4CC(C)(C)Oc5ccccc54)cc32)C(=N)N1 (centres unmarked),hepatocytes,,hepatocyte CLint,11.6 µL/min/10⁶ cells
Fc1ccc(OCC2CN(Cc3ncc4ccccn34)CCC2(F)F)cc1F (centres unmarked),liver microsomes,,scaled CLint,255 mL/min/kg
O=C(c1ccc(C23CC(S(F)(F)(F)(F)F)(CO2)C3)cc1)N1CCN(c2ncccn2)CC1,liver microsomes,,microsomal CLint,27 µL/min/mg
COc1ccc(C(N)=O)cn1,hepatocytes,"1 µM, pH 7.4",hepatocyte CLint,12 µL/min/10⁶ cells
Fc1ccc(OCC2CN(Cc3ncc4ccccn34)CCC2(F)F)cc1 (centres unmarked),liver microsomes,,scaled CLint,1390 mL/min/kg
O=C(Nc1cc(-c2ccnc3[nH]ccc23)c(Cl)cn1)[C@H]1CCC[C@@H](NC(=O)C(F)(F)F)C1,liver microsomes,,microsomal CLint,24.5 µL/min/mg
O=S(=O)(Nc1ccc(CO)cc1)c1ccc(Cl)c(Cl)c1,hepatocytes,1 µM,hepatocyte CLint,118 µL/min/10⁶ cells

# For quick reference, copied from above:
Compound,system,setting,endpoint,value
O=C(Nc1cc(-c2ccnc3[nH]ccc23)c(Cl)cn1)[C@H]1CCC[C@@H](NC(=O)C(F)(F)F)C1,liver microsomes,,microsomal CLint,24.5 µL/min/mg
C=CC(=O)N1CCCC(n2c(=O)c3ncccc3n(Cc3ccc(Oc4ccccc4)cc3)c2=O)C1 (centres unmarked),hepatocytes,1 µM,hepatocyte CLint,8.2 µL/min/10⁶ cells
CCC(CC)CNC(=N)NC(=N)NCCCCCCNC(=N)NC(=N)NCC(CC)CC,liver microsomes,2 µM,microsomal CLint,2.07 µL/min/mg
